Assay results of several laboratories.
Compare with care: the assays were run in different laboratories. Numbers after ± are the reported error.
VPS26A/VPS35/VPS29: VPS26A/VPS35/VPS29 (Homo sapiens, UniProt O75436+Q96QK1+Q9UBQ0)

O=C(O)c1ccc(O)c(O)c1
Kd (Dihydroorotate dehydrogenase A (fumarate) (pyrDA, Lactococcus lactis subsp. cremoris, UniProt A2RJT9, L71F); binding, aerobic titration; Lactococcus lactis; 25 °C): no binding

c1cncc([C@@H]2CCCN2)c1
Kd (Chrnd/Chrna1/Chrne (Mus musculus, UniProt P02716+P04756+P20782, G173K/S470W); resting state binding, agonist, single-channel kinetics): 0.33 µM

C[S+](CC[C@H](N)C(=O)O)C[C@H]1O[C@@H](n2cnc3c(N)ncnc32)[C@H](O)[C@@H]1O (stereo partly drawn)
Kd (kamB (Streptoalloteichus tenebrarius, UniProt P25920)): ~80 µM

NC[C@H](NC(=O)c1ccc(C#CC#Cc2ccccc2)cc1)C(=O)NO
Kd (UDP-3-O-acyl-N-acetylglucosamine deacetylase (Pseudomonas aeruginosa, UniProt P47205, C40S); binding): 0.0586 µM

CC[C@H](C)[C@@H]1NC(=O)[C@H]([C@@H](C)CC)NC(=O)[C@@H](Cc2ccc(O)cc2)NC(=O)CSC[C@@H](C(N)=O)NC(=O)[C@H](CCCNC(=N)N)NC(=O)[C@H](CCCCN)NC(=O)[C@H](CC(C)C)NC(=O)[C@H](CO)NC(=O)[C@H](CO)NC(=O)[C@H](CC(C)C)NC(=O)[C@H](Cc2ccccc2)NC(=O)[C@H](C(C)C)NC(=O)CNC(=O)[C@H](CC(C)C)NC(=O)[C@@H]2CCCN2C(=O)[C@H]([C@@H](C)O)NC(=O)[C@H](CC(=O)O)NC1=O
Kd (VPS26A/VPS35/VPS29; binding): 0.13 ± 0.009 µM

CSCC[C@H](NC(=O)CNC(=O)[C@H](Cc1ccccc1)NC(=O)[C@H](CC(=O)O)NC(=O)CNC(=O)c1ccc2c(c1)C(=O)OC21c2ccc(N(C)C)cc2Oc2cc(N(C)C)ccc21)C(=O)N[C@@H](CO)C(=O)N[C@@H](CCCNC(=N)N)C(=O)N[C@@H](CC(=O)O)C(=O)N[C@H](C(=O)N[C@@H](Cc1ccc(OP(=O)(O)O)cc1)C(=O)N[C@@H](CO)C(=O)N[C@H](C(=O)N[C@@H](CC(=O)O)C(=O)N[C@@H](Cc1ccc(O)cc1)C(=O)N[C@@H](Cc1ccc(O)cc1)C(=O)N[C@@H](CCCNC(=N)N)C(=O)N[C@H](C(=O)N[C@@H](CC(=O)O)C(=O)O)C(C)C)[C@@H](C)O)C(C)C
Kd (Transcription elongation factor SPT6, SH2 domain (SUPT6H, Homo sapiens, UniProt Q7KZ85); binding): 1.11 µM

O=C(O)CNC(=O)c1cccnc1
Kd (Ubiquitin carboxyl-terminal hydrolase 33, ZnF-UBD domain (USP33, Homo sapiens, UniProt Q8TEY7)): 514 µM

CC[C@H](C)[C@@H]1NC(=O)[C@H](CCCNC(=N)N)NC(=O)[C@@H]2CCCN2C(=O)[C@H](Cc2ccccc2)NC(=O)[C@H]([C@@H](C)O)NC(=O)CNC(=O)[C@H](CC(C)C)NC(=O)[C@@H]2CCCN2C(=O)[C@H]([C@@H](C)O)NC(=O)[C@H](Cc2c[nH]c3ccccc23)NC(=O)[C@H](Cc2ccc(O)cc2)NC(=O)[C@H]([C@@H](C)CC)NC(=O)[C@H]([C@@H](C)O)NC(=O)[C@H]([C@@H](C)O)NC(=O)[C@@H](Cc2ccc(O)cc2)NC(=O)CSC[C@@H](C(N)=O)NC(=O)[C@H](CCCNC(=N)N)NC1=O
Kd (VPS26A/VPS35/VPS29; binding): 0.053 ± 0.006 µM

CC[C@H](C)[C@H](NC(=O)[C@H](CC(=O)O)NC(=O)[C@@H](NC(=O)[C@H](CC(N)=O)NC(=O)[C@H](CC(=O)O)NC(=O)[C@H](CC(=O)O)NC(=O)[C@H](Cc1ccccc1)NC(=O)[C@H](CC(C)C)NC(=O)[C@@H](N)CC(N)=O)[C@@H](C)CC)C(=O)N[C@@H](Cc1ccccc1)C(=O)N[C@@H](C)C(=O)N[C@@H](CC(=O)O)C(=O)N[C@@H](CC(C)C)C(=O)N[C@H](C(=O)O)[C@@H](C)O
Kd (VPS26A/VPS35/VPS29; binding, ITC; pH 7.5, with: FAM21 peptides): 63.5 ± 8.7 µM

N[C@@H](Cc1c[nH]c2ccccc12)C(=O)O
Kd (Transcription attenuation protein MtrB, tandemly linked subunits (mtrB, Halalkalibacterium halodurans, UniProt Q9KCC6); binding, ITC): 4.5 ± 1.4 µM

N[C@@H](Cc1ccc(O)c(I)c1)C(=O)O
Kd (Iodotyrosine deiodinase (Haliscomenobacter hydrossis, UniProt F4KU78); binding): 12 ± 1 µM

CCCOC/C(=N\c1ccc(Cl)cc1C(F)(F)F)n1ccnc1
Kd (Cytochrome P450 2A6 (CYP2A6, Homo sapiens, UniProt P11509); binding; 20 min, pH 7.4, purified protein, 2% DMSO): 19.9 µM

CC[C@H](C)[C@H](NC(=O)[C@@H](NC(=O)[C@@H](NC(=O)[C@H](Cc1ccccc1)NC(=O)[C@H](C)NC(=O)[C@H](CCCNC(=N)N)NC(=O)CNC(=O)[C@@H]1CCCN1C(=O)CN)C(C)C)[C@@H](C)O)C(=O)O
Kd (H-2 class I histocompatibility antigen, D-D alpha chain, 21 (H2-D1, Mus musculus, UniProt P01900)): ~11000 µM

CC(C)C[C@H](NC(=O)[C@@H](NC(=O)[C@H](CO)NC(=O)[C@H](CO)NC(=O)[C@@H](NC(=O)[C@H](CC(=O)O)NC(=O)[C@H](CC(C)C)NC(=O)[C@@H]1CCCN1C(=O)[C@H](CO)NC(=O)c1ccc2c(c1)C(=O)OC21c2ccc(N(C)C)cc2Oc2cc(N(C)C)ccc21)[C@@H](C)O)C(C)C)C(=O)N[C@@H](Cc1ccc(OP(=O)(O)O)cc1)C(=O)N[C@H](C(=O)N[C@@H](C)C(=O)N[C@H](C(=O)N[C@@H](CCC(N)=O)C(=O)N1CCC[C@H]1C(=O)N[C@@H](CC(N)=O)C(=O)N[C@@H](CCC(=O)O)C(=O)N[C@@H](CC(=O)O)C(=O)O)C(C)C)[C@@H](C)O
Kd (SH2 domain-containing adapter protein F, SH2 domain (SHF, Homo sapiens, UniProt Q7M4L6); binding): 1.63 µM

CSCC[C@H](NC(=O)[C@@H]1CCCN1C(=O)CNC(=O)c1ccc2c(c1)C(=O)OC21c2ccc(O)cc2Oc2cc(O)ccc21)C(=O)N[C@@H](CCC(N)=O)C(=O)N[C@@H](CO)C(=O)N[C@H](C(=O)N1CCC[C@H]1C(=O)N[C@@H](CC(C)C)C(=O)N[C@@H](CC(N)=O)C(=O)NCC(=O)O)[C@@H](C)OP(=O)(O)O
Kd (Serine/threonine-protein kinase PLK1, polo-box domain (PLK1, Homo sapiens, UniProt P53350)): 0.0095 ± 0.0004 µM

O=C(O)C(S)c1ccccc1 (stereo not drawn)
Kd (di-zinc VIM-5 metallo-beta-lactamase; NMR): 0.17 µM

C/C(=C\C(=O)OCCCCCCCCC(=O)O)C[C@@H]1OC[C@H](C[C@@H]2O[C@H]2[C@@H](C)[C@H](C)O)[C@@H](O)[C@H]1O
Kd (Isoleucine--tRNA ligase (ileS, Staphylococcus aureus, UniProt Q5HGN8)): 1.8e-05 ± 7e-06 µM

N[C@@H](Cc1ccc(O)c(OC(F)(F)F)c1)C(=O)O
Kd (Iodotyrosine deiodinase (Haliscomenobacter hydrossis, UniProt F4KU78, Q108C); binding): 30 ± 1 µM

CC[C@H](C)[C@H](NC(=O)[C@H](CC(=O)O)NC(=O)[C@H](C)NC(=O)[C@H](Cc1ccc(O)cc1)NC(=O)[C@H](CCCCN)NC(=O)c1ccc2c(c1)C(=O)OC21c2ccc(N(C)C)cc2Oc2cc(N(C)C)ccc21)C(=O)N[C@@H](CCC(=O)O)C(=O)N[C@@H](CO)C(=O)N[C@@H](CO)C(=O)N[C@@H](CC(N)=O)C(=O)N[C@@H](Cc1ccc(OP(=O)(O)O)cc1)C(=O)N[C@@H](CCSC)C(=O)N[C@@H](C)C(=O)N1CCC[C@H]1C(=O)N[C@@H](Cc1ccc(O)cc1)C(=O)N[C@@H](CC(=O)O)C(=O)N[C@@H](CC(N)=O)C(=O)N[C@@H](Cc1ccc(O)cc1)C(=O)N[C@@H](CC(=O)O)C(=O)O
Kd (Tensin-4, SH2 domain (Homo sapiens, UniProt Q8IZW8); binding): 0.063 µM

CC(=O)N[C@@H](CC(N)=O)C(=O)N[C@@H](CC(C)C)C(=O)NCC(=O)N[C@@H](CCCCN)C(=O)N[C@@H](Cc1c[nH]cn1)C(=O)N[C@@H](CCC(=O)O)C(=O)N[C@@H](CCCCN)C(=O)N[C@@H](Cc1ccccc1)C(=O)N[C@@H](CO)C(=O)N[C@@H](CCC(=O)O)C(=O)N[C@H](C(=O)N[C@@H](CC(C)C)C(=O)N[C@@H](CCCCN)C(=O)N[C@@H](CCCNC(=N)N)C(=O)N[C@@H](CC(C)C)C(=O)N[C@@H](CCCNC(=N)N)C(=O)N[C@@H](CC(C)C)C(=O)N[C@@H](CCC(N)=O)C(N)=O)C(C)C
Kd (Calmodulin-1, N-lobe fragment (CALM1, Homo sapiens, UniProt P0DP23); ITC; N-lobe, with: 1 mM CaCl2): 1.96 µM

CC[C@@H](C)[C@@H](NC(=O)[C@@H](Cc1ccc(O)cc1)NC(=O)[C@H]1CCCN1C(=O)[C@@H](CCCNC(=N)N)NC(=O)[C@H](N)Cc1c[nH]cn1)C(=O)N[C@H](C)C(=O)N[C@H](Cc1c[nH]cn1)C(=O)N[C@H](CCCNC(=N)N)C(=O)N[C@H](CCCCNC(=O)c1cccc(S(=O)(=O)F)c1)C(=O)N[C@H](Cc1ccc(O)cc1)C(=O)N[C@H](CO)C(=O)N[C@H](Cc1ccccc1)C(N)=O
Kd (Programmed cell death 1 ligand 1 (CD274, Homo sapiens, UniProt Q9NZQ7); microscale thermophoresis; 2 h, His-tagged protein): 1.3 ± 1.9 µM

Some of these lines once more:
O=C(O)CNC(=O)c1cccnc1
Kd (Ubiquitin carboxyl-terminal hydrolase 33, ZnF-UBD domain (USP33, Homo sapiens, UniProt Q8TEY7)): 514 µM

CC[C@H](C)[C@H](NC(=O)[C@@H](NC(=O)[C@@H](NC(=O)[C@H](Cc1ccccc1)NC(=O)[C@H](C)NC(=O)[C@H](CCCNC(=N)N)NC(=O)CNC(=O)[C@@H]1CCCN1C(=O)CN)C(C)C)[C@@H](C)O)C(=O)O
Kd (H-2 class I histocompatibility antigen, D-D alpha chain, 21 (H2-D1, Mus musculus, UniProt P01900)): ~11000 µM

CC[C@H](C)[C@H](NC(=O)[C@H](CC(=O)O)NC(=O)[C@@H](NC(=O)[C@H](CC(N)=O)NC(=O)[C@H](CC(=O)O)NC(=O)[C@H](CC(=O)O)NC(=O)[C@H](Cc1ccccc1)NC(=O)[C@H](CC(C)C)NC(=O)[C@@H](N)CC(N)=O)[C@@H](C)CC)C(=O)N[C@@H](Cc1ccccc1)C(=O)N[C@@H](C)C(=O)N[C@@H](CC(=O)O)C(=O)N[C@@H](CC(C)C)C(=O)N[C@H](C(=O)O)[C@@H](C)O
Kd (VPS26A/VPS35/VPS29; binding, ITC; pH 7.5, with: FAM21 peptides): 63.5 ± 8.7 µM

CC(C)C[C@H](NC(=O)[C@@H](NC(=O)[C@H](CO)NC(=O)[C@H](CO)NC(=O)[C@@H](NC(=O)[C@H](CC(=O)O)NC(=O)[C@H](CC(C)C)NC(=O)[C@@H]1CCCN1C(=O)[C@H](CO)NC(=O)c1ccc2c(c1)C(=O)OC21c2ccc(N(C)C)cc2Oc2cc(N(C)C)ccc21)[C@@H](C)O)C(C)C)C(=O)N[C@@H](Cc1ccc(OP(=O)(O)O)cc1)C(=O)N[C@H](C(=O)N[C@@H](C)C(=O)N[C@H](C(=O)N[C@@H](CCC(N)=O)C(=O)N1CCC[C@H]1C(=O)N[C@@H](CC(N)=O)C(=O)N[C@@H](CCC(=O)O)C(=O)N[C@@H](CC(=O)O)C(=O)O)C(C)C)[C@@H](C)O
Kd (SH2 domain-containing adapter protein F, SH2 domain (SHF, Homo sapiens, UniProt Q7M4L6); binding): 1.63 µM
